# Measurements of several laboratories.
# Parts stem from different laboratories: compare values within a part only.

# Series 1 — method: DNA-protein interaction ELISA; molecule type: double-stranded DNA, one strand shown; medium: in vitro, bacterial lysate; tested at: not given; setting: whole dsDNA probe, crude lysate protein; relative to: highest signal in screen; reading: higher = stronger binding
# Target: Probable WRKY transcription factor 11, DNA-binding domain (WRKY11, Arabidopsis thaliana, UniProt Q9SV15, residues 228-325)
# Construct (chain): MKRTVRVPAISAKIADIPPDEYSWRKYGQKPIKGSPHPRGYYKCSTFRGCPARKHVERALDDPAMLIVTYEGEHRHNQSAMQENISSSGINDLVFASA
Strand,relative absorbance
AAAAAAGTCCCGCGCTAAGCTTTAAAAAAA,15.6 % of maximum
AAAAAATTAGACGCTACACTTACGGTAAAA,17 % of maximum
AAAAAACCCGGTTGGAGAAAATAATTAAAA,13.3 % of maximum
AAAAAACGCAACTCCGGATGTGGGGTAAAA,14.4 % of maximum
AAAAAATAAACGTGTTCATACTTAGTAAAA,16.1 % of maximum
AAAAAAATCCCACTTCATTCTAAAAA,15.8 % of maximum
AAAAAAGCTCATGGCCCTGAGGATCTAAAA,18.7 % of maximum
AAAAAAGGGCGAGCGCTGGATCCACAAAA,12.4 % of maximum
AAAAAACCTCTTGTCTCTGCTCTCCCAAAA,14.4 % of maximum
AAAAAAGTTTCCTACTTGTGTCTGTGAAAA,13.5 % of maximum
AAAAAACTCCCTCTCCTCTGTCTTCCAAAA,16.1 % of maximum
AAAAAATCCTTTTCTCTTTCTGTTTCAAAA,14.1 % of maximum
AAAAAACCGACCTGCACGTCGCTGCTAAAA,12.4 % of maximum
AAAAAAGCATATCTTCAGAACTTGCCAAAA,16.4 % of maximum
AAAAAAACTCTAGGTCAATATTATTCAAAA,76.7 % of maximum
AAAAAAGCTCGTCTCCGCCTCCTGCTAAAA,17.3 % of maximum
AAAAAATCTATTCCATTTCGCCTTCTAAAA,16.7 % of maximum
AAAAAAGCTTCTCATGTTGTCTTAGGAAAA,16.4 % of maximum
AAAAAATGGTACTCAGAGTTATAGACAAAA,16.1 % of maximum
AAAAAACCCATCCTTCGTTCCATCGTAAAA,19 % of maximum
AAAAAATAGTACCGCTAATGGCTGACAAAA,15 % of maximum
AAAAAAATCAGCCTGACTCTGGGCGTAAAA,17.6 % of maximum
AAAAAACCGCTTACATTGCGTTGTCGAAAA,16.4 % of maximum
AAAAAAGTGTTAGATTGTAGTTGATAAAA,17.3 % of maximum
AAAAAATTAATCCATGCTTATGTCTGAAAA,16.7 % of maximum

# Series 2 — method: protein binding microarray; molecule type: double-stranded DNA, one strand shown; medium: in vitro; tested at: not given; relative to: not given; reading: higher = stronger binding
# Target: Histone acetyltransferase KAT6A, winged helix 1, GST fusion (KAT6A, Homo sapiens, UniProt Q92794, residues 1-85)
# Setting: 8-mer, flanks averaged, mean of 2 arrays, mostly near background
# Residues (chain): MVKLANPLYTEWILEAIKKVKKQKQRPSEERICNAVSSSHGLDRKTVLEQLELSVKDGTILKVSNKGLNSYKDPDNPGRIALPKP
Strand,E-score
TATCAGCA,-0.15
AGGGTGTG,-0.323
ACAAAATC,-0.151
CCCACCTA,-0.153
AAAAAGGC,-0.138
ACCACATC,-0.197
GATAAGCA,-0.0206
CGAGAGCG,0.229
ATCATAGC,-0.064
CCTCAAGA,-0.118
ACGGTACC,0.246
ACATAAGA,-0.112
ACGCGGAC,0.353
CGAAGTAG,-0.0722
TACGTAAA,-0.00949
CCGTATAG,0.175
AGTACGCG,0.303
CGGCACGC,0.402
AATCACGG,0.232
CGTGCTGA,-0.143
ATTCCCAG,-0.131
AATGGCAC,-0.00845
ACATTACT,-0.0157
GGGTGGGA,-0.0664
CACATACC,-0.0162

# Series 3 — method: RNA Bind-n-Seq; molecule type: RNA; medium: in vitro; tested at: not given; relative to: input RNA pool; reading: higher = stronger binding
# Target: RING finger protein unkempt homolog, zinc fingers 1-6, GST-SBP tag (UNK, Homo sapiens, UniProt Q9C0B0, residues 30-357)
# Setting: RNA with constant flanks, human and mouse sites, ends assumed
# Residues (chain): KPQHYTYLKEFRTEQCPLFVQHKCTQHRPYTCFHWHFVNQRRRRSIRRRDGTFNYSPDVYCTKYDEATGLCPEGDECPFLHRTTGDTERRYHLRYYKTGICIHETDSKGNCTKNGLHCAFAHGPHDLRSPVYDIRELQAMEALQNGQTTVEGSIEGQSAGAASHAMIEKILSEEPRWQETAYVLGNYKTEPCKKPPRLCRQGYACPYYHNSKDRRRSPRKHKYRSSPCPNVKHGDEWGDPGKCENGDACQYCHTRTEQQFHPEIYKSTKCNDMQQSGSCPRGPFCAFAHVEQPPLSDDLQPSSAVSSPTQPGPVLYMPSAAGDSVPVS
Strand,bound/input enrichment
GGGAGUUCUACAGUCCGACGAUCCCAGAUACAAUAGAAAGUGAACCCAGCACAGCAGAUACCGUUGUUCCAAUCACUUGUGCUAUAGAUUCUACAGCUGAUCCACAGGUUAGCUUCAACUCUAAUUACAUUGAUAUAGAAAGUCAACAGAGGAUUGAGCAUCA,0.729 ratio
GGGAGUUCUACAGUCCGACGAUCGGAGAGGCCCAGGCAGCGGCGGCGGCGGCGGCUCUCGGGUUGCGGUGAAGAAUGUCAGCCACUAGCGUGGAUCAGAGACCUAAAGGGCAAGGAAAUAAAGUUUCAGUACAAAACGGUUCGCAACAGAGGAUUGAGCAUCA,0.232 ratio
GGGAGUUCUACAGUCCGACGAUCUAAUUAUUCACCUUUAGCUUUUGUCUCUUGUGCAUGCUAUCACAGUUUUGCUUGUAUUUUUAGCAUAUGAACAUUUAUAAAGUCACUUUUUUUGUUACUGCAAUUUUGUCUGAUUUAUCCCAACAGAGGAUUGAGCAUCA,8.42 ratio
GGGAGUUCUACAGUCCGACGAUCGCAGUUAUAUGUGGAAACACUGGUAAUUCUUUCCACAGUGUUGUUUUGGAUAAUCUGUUCUAGUAUAUUUAACUAAUUGUAUGGUGGACCUGUACUCUGAUACACAUCGAAUCAGUCAAUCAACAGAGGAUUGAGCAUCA,2.66 ratio
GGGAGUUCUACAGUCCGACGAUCUUCUCUGAGGCCCGUGAGGACAUGGCUGCCCUAGAGAAGGAUUAUGAGGAGGUUGGUGUGGAUUCUGUGGAAGGCGAGGGGGAGGAAGAAGGAGAGGAAUACUAAAUUAAAUGUCACAAGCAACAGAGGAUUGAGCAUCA,0.598 ratio
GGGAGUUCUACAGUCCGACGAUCUUAGGACUUAGCUGCUUUGUUAAUAGAGGUCUUAACUUGAAUAUUUAGAAAUAAUCAGAAAAAUUAUUUUUUGGUAUUGAAGAUGUAUUUUGGAAAUGGGUUUUAAAGUACCUACUUAAGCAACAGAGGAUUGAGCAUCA,1.41 ratio
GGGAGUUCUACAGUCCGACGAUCAUGAUCGACGUGCAGAACAGGGCCUACUUCCAGCAGUACGGCUGCACCUUCACCGCUGUCAUCCCCACCAACGUCUUCGGGCCCCACGACAACUUCAACAUCGAGGAUGGCCACGUGCUGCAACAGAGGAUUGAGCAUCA,0.0862 ratio
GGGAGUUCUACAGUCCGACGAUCAUGACAAAACCAUCUGAGAAGGAAUCUGAACAGCCAGCAAAAGCCACUUUUGCCUUUGGAGCUCAAACUAGUACUACAGCUGAUCAAGGUGCAGCAAAGCCAGUUUUUAGUUUCUUGAACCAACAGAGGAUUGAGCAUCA,0.314 ratio
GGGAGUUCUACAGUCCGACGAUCAAGAUUAAAUUGCUUACUGGUAAACGCGUUCAACUGGCGGAAGACCUCAAGAAAGUUAGAGAAAUUCAAGAAAAACUUGAUGCUUUCAUUGAAGCUCUUCAUCAGGAGAAAUAAAUUAAACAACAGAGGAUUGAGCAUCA,0.314 ratio
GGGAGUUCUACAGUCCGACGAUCUACGAAUUGUUAAAAUGGAAUGCAAGUUUUUCAAAAGCCCAGGUCUAAAUGUAAUGGUUGGUUUAUUGUUCUAUAACCCCAGCCCAUCAUUUUCUGUGUAAAUCAUAAACAAUAAACAGACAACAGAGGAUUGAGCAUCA,0.181 ratio
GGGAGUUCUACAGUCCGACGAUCUAUUUAGUUUUCUGUAGGGUUUUUUGGUUUUGGGGGGGGGGUUGUUUGUUUGUUUGUUGUUUUAGUUUUUGGAAGGAGGGAUGGACUCCACCAGUGUCAGUGUCGGUGUGUCUUAUGUCUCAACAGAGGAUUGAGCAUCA,18.9 ratio

# Series 4 — method: aptamer microarray, sandwich; molecule type: DNA with 2'F-ANA; medium: in vitro; tested at: 200 nM; with: Cy3 exosite-II aptamer, 400 nM; reading: higher = stronger binding; strand: GGTTGGTGTGGTTGG
# Target: Prothrombin, mature alpha-thrombin (F2, Homo sapiens, UniProt P00734)
# Setting: whole 15-mer aptamer, many near background
Modification,mean fluorescence intensity
2'F-ANA at 1 2 4 5 7 9 11 13 14 15,145 a.u.
2'F-ANA at 1 2 3 4 6 7 8 15,191 a.u.
2'F-ANA at 1 3 4 7 10 11 13 14,73.5 a.u.
2'F-ANA at 3 6 7 9 10 12 13 14,379 a.u.
2'F-ANA at 2 3 6 7 9 10 11 13 15,328 a.u.
2'F-ANA at 1 2 3 4 5 8 9 10 11 12 13,54.4 a.u.
2'F-ANA at 3 4 7 8 9 10 11 12,358 a.u.
2'F-ANA at 1 4 5 9 10 13 14,43.6 a.u.
2'F-ANA at 1 2 4 9 10 11 14 15,45.1 a.u.
2'F-ANA at 1 3 4 7 9 10 11 13 14,50.8 a.u.
2'F-ANA at 1 2 3 4 5 6 10,48.5 a.u.
2'F-ANA at 2 3 4 6 7 9 10,215 a.u.
2'F-ANA at 2 3 4 7 8 10,321 a.u.
2'F-ANA at 2 5 6 7 9 10 11 12 13 14 15,54.1 a.u.
2'F-ANA at 2 3 4 7 9 10 12 13 15,251 a.u.
2'F-ANA at 1 3 5 11 13 14,41.8 a.u.
2'F-ANA at 5 9 10 12 13 14,42 a.u.

# Series 5 — method: universal PBM; molecule type: double-stranded DNA, one strand shown; medium: in vitro; tested at: not given; reading: higher = stronger binding
# Target: Sal-like protein 4, full length isoform B (SALL4, Homo sapiens, UniProt Q9UJQ4-2, residues 1-616)
# Setting: 8-mer, flanks averaged, mean of replicates
Strand,E-score
ATTCCAGA,0.0887
ACCAGCGT,-0.133
CATTTTGG,0.19
ACACTGTA,0.111
GAGAGAGA,-0.0837
ACCATAAA,0.299
CTGCGGTA,-0.00772
AATTCAAA,0.324
ATAATCTC,0.25
GCAGGATA,-0.0524
GTCACAAC,-0.0689
CTAAATTA,0.31
ACCTTTGC,0.0648
AAGAGTGG,-0.275
GATCTCAA,-2e-05
CGATAAGC,-0.136
TGGTTCAA,0.0867
AATAATGG,0.281
CGTTAAGC,-0.116
CGACCGAG,-0.287
ATGAGCGG,-0.0958
AGTCGGAG,-0.247
ATTTCTGA,0.0961
AATAGGGC,-0.0186
TATCCAAA,0.231

# Repeated from above (series 4):
Modification,mean fluorescence intensity
2'F-ANA at 1 2 4 5 7 9 11 13 14 15,145 a.u.
2'F-ANA at 1 2 3 4 6 7 8 15,191 a.u.
2'F-ANA at 1 3 4 7 10 11 13 14,73.5 a.u.
2'F-ANA at 3 6 7 9 10 12 13 14,379 a.u.
2'F-ANA at 2 3 6 7 9 10 11 13 15,328 a.u.
2'F-ANA at 1 2 3 4 5 8 9 10 11 12 13,54.4 a.u.
2'F-ANA at 3 4 7 8 9 10 11 12,358 a.u.
2'F-ANA at 1 4 5 9 10 13 14,43.6 a.u.
2'F-ANA at 1 2 4 9 10 11 14 15,45.1 a.u.
2'F-ANA at 1 3 4 7 9 10 11 13 14,50.8 a.u.
2'F-ANA at 1 2 3 4 5 6 10,48.5 a.u.
